Experimental data gathered from unrelated publications.
A part holds a random share of what one study measured.

Study 1 — technique: protein-binding microarray; molecule type: double-stranded DNA, one strand shown; medium: in vitro; concentration: 2200 nM top; notes: 60-bp whole probe; together with: salmon DNA 0.4 mg/ml; reference: random background probes; reading: higher = stronger binding
Target: Interferon regulatory factor 7, full length, phosphomimetic (IRF7, Homo sapiens, UniProt Q92985, residues 1-503, S471D/S472D/S475D/S476D/S477D/S483D/S484D/S487D)
Chain of UniProt Q92985 (whole entry, unmodified, looked up): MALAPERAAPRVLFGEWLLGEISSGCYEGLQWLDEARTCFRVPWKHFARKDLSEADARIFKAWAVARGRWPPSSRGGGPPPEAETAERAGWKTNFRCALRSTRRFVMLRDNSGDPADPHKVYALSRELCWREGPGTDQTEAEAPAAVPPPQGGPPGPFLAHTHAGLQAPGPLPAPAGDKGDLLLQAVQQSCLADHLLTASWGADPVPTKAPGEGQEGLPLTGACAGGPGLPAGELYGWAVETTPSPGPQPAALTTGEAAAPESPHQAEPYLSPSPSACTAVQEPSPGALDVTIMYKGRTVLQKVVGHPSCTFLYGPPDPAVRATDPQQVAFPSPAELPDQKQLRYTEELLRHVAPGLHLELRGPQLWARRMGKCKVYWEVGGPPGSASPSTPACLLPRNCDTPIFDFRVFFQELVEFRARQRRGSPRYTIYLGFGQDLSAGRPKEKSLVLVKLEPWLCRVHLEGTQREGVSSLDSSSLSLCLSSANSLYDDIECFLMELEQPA
Oligonucleotide | fitted relative affinity [z-score]
GCCTAGCACTTTGGTATCGGTTTCGGTTAGTGCTAGGTCTTGATTCGCTTGACGCTGCTG | 7.67
GCCTAGCACTTCTAATTTACTTTGGTTGGGTGCTAGGTCTTGATTCGCTTGACGCTGCTG | 0.561
GCCTAGCACCTCCTTTTAATTTTTAACGAGTGCTAGGTCTTGATTCGCTTGACGCTGCTG | 1.17

Study 2 — technique: protein binding microarray; molecule type: double-stranded DNA, one strand shown; medium: in vitro; concentration: not given; reference: not given; reading: higher = stronger binding
Target: Histone acetyltransferase KAT6A, both winged helices, GST fusion (KAT6A, Homo sapiens, UniProt Q92794, residues 1-181)
Notes: 8-mer, flanks averaged, mean of 2 arrays, mostly near background
Target sequence (chain): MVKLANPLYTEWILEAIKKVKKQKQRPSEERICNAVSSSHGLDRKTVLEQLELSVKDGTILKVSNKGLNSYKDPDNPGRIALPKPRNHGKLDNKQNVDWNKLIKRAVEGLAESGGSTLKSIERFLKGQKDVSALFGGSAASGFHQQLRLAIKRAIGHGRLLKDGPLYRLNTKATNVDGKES
Oligonucleotide | E-score
GAGCAAGA | -0.0989
CATTGTGC | 0.0485
AATCAGCC | -0.0159
CTACCCGA | 0.0819
CTGACACA | -0.138
AGGTCTGG | -0.177

Study 3 — technique: universal PBM; molecule type: double-stranded DNA, one strand shown; medium: in vitro; concentration: 600 nM; reading: higher = stronger binding
Target: Sal-like protein 4, full length isoform A (SALL4, Homo sapiens, UniProt Q9UJQ4, residues 1-1053)
Chain of UniProt Q9UJQ4 (whole entry, looked up): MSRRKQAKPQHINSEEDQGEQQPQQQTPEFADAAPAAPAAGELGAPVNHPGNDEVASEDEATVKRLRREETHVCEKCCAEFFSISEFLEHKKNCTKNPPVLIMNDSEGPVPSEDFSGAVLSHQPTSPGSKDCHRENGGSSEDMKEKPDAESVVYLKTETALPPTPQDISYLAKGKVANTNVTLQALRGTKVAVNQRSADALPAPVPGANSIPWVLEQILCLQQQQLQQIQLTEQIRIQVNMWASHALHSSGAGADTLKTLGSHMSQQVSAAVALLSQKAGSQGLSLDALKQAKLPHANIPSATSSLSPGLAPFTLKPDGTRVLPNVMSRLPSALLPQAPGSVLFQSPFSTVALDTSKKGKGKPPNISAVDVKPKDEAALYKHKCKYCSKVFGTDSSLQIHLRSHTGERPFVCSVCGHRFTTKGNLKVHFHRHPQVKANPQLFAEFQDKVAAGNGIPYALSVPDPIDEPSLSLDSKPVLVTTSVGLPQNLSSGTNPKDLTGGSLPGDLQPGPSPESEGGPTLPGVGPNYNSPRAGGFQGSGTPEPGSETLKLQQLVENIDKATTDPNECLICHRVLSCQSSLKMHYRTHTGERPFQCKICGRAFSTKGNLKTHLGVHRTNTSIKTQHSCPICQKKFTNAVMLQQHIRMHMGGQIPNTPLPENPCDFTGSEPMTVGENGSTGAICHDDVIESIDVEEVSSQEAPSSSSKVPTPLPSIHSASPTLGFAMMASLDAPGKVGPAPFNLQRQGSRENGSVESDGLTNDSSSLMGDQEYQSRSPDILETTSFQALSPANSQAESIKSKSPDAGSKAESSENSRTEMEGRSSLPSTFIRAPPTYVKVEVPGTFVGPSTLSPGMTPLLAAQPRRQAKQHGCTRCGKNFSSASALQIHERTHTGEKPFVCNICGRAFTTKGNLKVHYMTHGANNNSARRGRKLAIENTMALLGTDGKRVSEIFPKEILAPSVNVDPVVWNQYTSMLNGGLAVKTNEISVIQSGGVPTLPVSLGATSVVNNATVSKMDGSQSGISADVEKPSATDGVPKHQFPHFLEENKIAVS
Notes: 8-mer, flanks averaged, mean of replicates
Oligonucleotide | E-score
AAATTTGC | 0.22
CCCGTGCA | -0.352
CCTAAAAC | 0.083
CATTGCGG | -0.168
CACTACAA | 0.163

Mixed results
Molecule | target | test | test system | setting | scale | quantity | value
PhoQ, residues 284 288 289 292 302 303 NLALSC | PhoP, residues 12 14 15 18 19 HLGGL (Escherichia coli, UniProt P23836) | Sort-seq, measured: YFP reporter | E. coli | PhoQ-PhoP variant library, together with: 10 µM Mg2+ | reference: high Mg2+ state, higher = stronger signaling | fold induction | 1.14

Excerpt of the above (study 3):
Oligonucleotide | E-score
CACTACAA | 0.163
CCTAAAAC | 0.083
